Measured values pooled from the literature.
Lines come from different studies, so protocols differ.

CC(C)n1c(Nc2cccnc2)nc2cnc(Nc3ccc(N4CCN(C)CC4)cc3)nc21
adverse event incidence (measured: Hypertriglyceridaemia; healthy male subjects; oral, 100 mg, together with: itraconazole): 35.7%

Cc1c(C(=O)O)ccc2c3n(nc12)[C@@H]1[C@H](C3)N(CC2CC2)[C@@]2(C(=O)Nc3cc(Cl)ccc32)[C@H]1c1cccc(Cl)c1F
adverse event incidence (phase Ia trial, measured: Dizziness; cancer patients; oral, dose not given): 24%

CC[C@H](C)CCCCC(=O)N[C@@H](CCN)C(=O)N[C@H](C(=O)N[C@@H](CCN)C(=O)N[C@H]1CCNC(=O)[C@H]([C@@H](C)O)NC(=O)[C@H](CCN)NC(=O)[C@H](CCN)NC(=O)[C@H](CC(C)C)NC(=O)[C@@H](Cc2ccccc2)NC(=O)[C@H](CCN)NC1=O)[C@@H](C)O
adverse event incidence (measured: gastrointestinal disorders; all subjects; intravenous, 0.75 mg/kg): 86.4%

CC[C@H](C)[C@H](NC(=O)[C@H](Cc1ccccc1)NC(=O)[C@H](CCC(=O)O)NC(=O)[C@H](CCCCNC(=O)COCCOCCNC(=O)COCCOCCNC(=O)CC[C@H](NC(=O)CCCCCCCCCCCCCCCCC(=O)O)C(=O)O)NC(=O)[C@H](C)NC(=O)[C@H](C)NC(=O)[C@H](CCC(N)=O)NC(=O)CNC(=O)[C@H](CCC(=O)O)NC(=O)[C@H](CC(C)C)NC(=O)[C@H](Cc1ccc(O)cc1)NC(=O)[C@H](CO)NC(=O)[C@H](CO)NC(=O)[C@@H](NC(=O)[C@H](CC(=O)O)NC(=O)[C@H](CO)NC(=O)[C@@H](NC(=O)[C@H](Cc1ccccc1)NC(=O)[C@@H](NC(=O)CNC(=O)[C@H](CCC(=O)O)NC(=O)C(C)(C)NC(=O)[C@@H](N)Cc1cnc[nH]1)[C@@H](C)O)[C@@H](C)O)C(C)C)C(=O)N[C@@H](C)C(=O)N[C@@H](Cc1c[nH]c2ccccc12)C(=O)N[C@@H](CC(C)C)C(=O)N[C@H](C(=O)N[C@@H](CCCNC(=N)N)C(=O)NCC(=O)N[C@@H](CCCNC(=N)N)C(=O)NCC(=O)O)C(C)C
adverse event incidence (measured: Serious adverse events; type 2 diabetes patients; dose not given; relative to: subjects): 6.7%

O=C1CCc2ccc(OCCCCN3CCN(c4cccc(Cl)c4Cl)CC3)cc2N1
adverse event incidence (measured: Rigidity; genotyped patients, CYP2D6 intermediate metabolizers; dose not given, long-acting oral or depot): 8.3%

FC(F)(F)c1ccc(CNc2ccc(Cc3c[nH]c4ncc(Cl)cc34)cn2)cn1
adverse event incidence (measured: Constipation; patients with advanced solid tumours; oral, dose not given, all grades, possibly related to drug): 11%

Cc1ccc(Sc2ccccc2N2CCNCC2)c(C)c1
adverse event incidence (TEAE vomiting; healthy adult men; oral, 10 mg single dose, 8 nights, overall): 5%

CC(=O)O[C@H]1C(=O)[C@@]2(C)[C@H]([C@H](OC(=O)c3ccccc3)[C@]3(O)C[C@H](OC(=O)[C@H](O)[C@@H](NC(=O)c4ccccc4)c4ccccc4)C(C)=C1C3(C)C)[C@]1(OC(C)=O)CO[C@@H]1C[C@@H]2O
adverse event incidence (measured: Pruritus; patients with advanced solid tumours; intravenous, dose not given, grade 1 and 2, possibly related to drug): 11%

Cc1c(Cl)c(C)[n+]([O-])c(Cl)c1-c1noc(-c2cc(O)c(O)c([N+](=O)[O-])c2)n1
adverse event incidence (measured: Moderate severity; healthy Chinese subjects; oral, 25 mg): 0%

Excerpt of the above:
O=C1CCc2ccc(OCCCCN3CCN(c4cccc(Cl)c4Cl)CC3)cc2N1
adverse event incidence (measured: Rigidity; genotyped patients, CYP2D6 intermediate metabolizers; dose not given, long-acting oral or depot): 8.3%
